Experimental data from different studies.
Protocols differ between the studies behind these lines. Numbers after ± are the reported error.
Matrix: plasma

O=C(Nc1c(Cl)cncc1Cl)c1ccc(OC(F)F)c(OCC2CC2)c1  elimination half-life (human adolescents; topical, 0.3% cream once daily, 14 days): 69.6 h
NCCCS(=O)(=O)O  elimination rate constant (human, both sexes; oral, 100 mg, modified-release tablet): 5.07e-05 ± 2.85e-05 s⁻¹
Br.Cc1ccc(Sc2ccccc2N2CCNCC2)c(C)c1  elimination half-life (healthy humans; oral, mean, population PK model): 65.8 h
CCOC(=O)C1=C[C@@H](OC(CC)CC)[C@H](NC(C)=O)[C@@H](N)C1  elimination rate constant (healthy Indian human; oral, 75 mg single, Tamiflu reference capsule fed): 5.44e-05 ± 2.83e-05 s⁻¹
CC(C)C[C@H](NC(=O)[C@H](CCc1ccccc1)NC(=O)CN1CCOCC1)C(=O)N[C@@H](Cc1ccccc1)C(=O)N[C@@H](CC(C)C)C(=O)[C@@]1(C)CO1  elimination half-life (human patients; intravenous infusion 10 min, 27 mg/m^2, day 16 of cycle 1, KRd regimen): 0.74 ± 0.272 h
O=C(Nc1c(Cl)c[n+]([O-])cc1Cl)c1ccc(OC(F)F)c(OCC2CC2)c1  elimination half-life (human adults; topical, 0.3% roflumilast cream once daily, 14 days): 110 h
CCOc1ccc(Cc2cc([C@@H]3S[C@H](CO)[C@@H](O)[C@H](O)[C@H]3O)c(OC)cc2C)cc1  elimination rate constant (human; oral, 10 mg/day, day 7, multiple dose before breakfast): 2.13e-05 ± 2.49e-06 s⁻¹
Cc1cccc(C)c1N(CC(=O)Nc1ccc(-c2ncon2)cc1)C(=O)C1CCS(=O)(=O)CC1  elimination half-life (human male; geometric mean, together with: ritonavir single dose 600 mg): 12 to 13 h

For quick reference, copied from above:
CCOC(=O)C1=C[C@@H](OC(CC)CC)[C@H](NC(C)=O)[C@@H](N)C1  elimination rate constant (healthy Indian human; oral, 75 mg single, Tamiflu reference capsule fed): 5.44e-05 ± 2.83e-05 s⁻¹
